# Measured values from different studies.
# Protocols differ between the studies behind these lines. ± gives the spread as reported.
# Broad substrate specificity ATP-binding cassette transporter ABCG2: Broad substrate specificity ATP-binding cassette transporter ABCG2 (Mus musculus, UniProt Q7TMS5)
# Chain of UniProt Q7TMS5 (whole entry, looked up): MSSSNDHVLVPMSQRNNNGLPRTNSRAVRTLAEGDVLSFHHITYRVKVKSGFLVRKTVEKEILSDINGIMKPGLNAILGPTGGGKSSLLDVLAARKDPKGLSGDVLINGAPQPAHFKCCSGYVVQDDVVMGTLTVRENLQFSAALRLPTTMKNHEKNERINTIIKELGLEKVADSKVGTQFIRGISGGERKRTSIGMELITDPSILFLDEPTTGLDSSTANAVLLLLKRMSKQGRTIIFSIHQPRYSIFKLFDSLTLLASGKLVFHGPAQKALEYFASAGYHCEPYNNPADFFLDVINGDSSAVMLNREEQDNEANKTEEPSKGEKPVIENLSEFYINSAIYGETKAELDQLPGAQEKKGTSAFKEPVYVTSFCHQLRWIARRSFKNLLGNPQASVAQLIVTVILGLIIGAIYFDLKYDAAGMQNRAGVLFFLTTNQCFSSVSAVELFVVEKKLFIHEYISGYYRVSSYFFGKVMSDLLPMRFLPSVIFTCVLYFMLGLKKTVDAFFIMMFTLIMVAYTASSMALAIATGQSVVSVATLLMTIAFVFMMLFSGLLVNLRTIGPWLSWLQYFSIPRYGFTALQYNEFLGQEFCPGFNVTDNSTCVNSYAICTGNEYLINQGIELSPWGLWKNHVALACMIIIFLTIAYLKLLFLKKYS
# Chain of UniProt P11509 (whole entry, looked up): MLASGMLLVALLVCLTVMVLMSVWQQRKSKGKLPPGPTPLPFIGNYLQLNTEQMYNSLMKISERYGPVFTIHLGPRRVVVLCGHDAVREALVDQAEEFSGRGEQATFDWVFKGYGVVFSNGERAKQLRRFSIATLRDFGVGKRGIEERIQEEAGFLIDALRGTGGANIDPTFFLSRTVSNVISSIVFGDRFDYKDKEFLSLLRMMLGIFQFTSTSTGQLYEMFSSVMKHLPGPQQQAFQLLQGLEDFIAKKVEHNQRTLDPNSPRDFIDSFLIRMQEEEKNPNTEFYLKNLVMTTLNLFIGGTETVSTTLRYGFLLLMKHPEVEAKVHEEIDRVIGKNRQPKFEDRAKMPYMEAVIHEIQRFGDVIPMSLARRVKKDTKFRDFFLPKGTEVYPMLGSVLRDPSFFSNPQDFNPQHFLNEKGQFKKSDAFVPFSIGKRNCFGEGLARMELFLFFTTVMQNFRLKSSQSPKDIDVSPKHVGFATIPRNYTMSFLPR
# Chain of UniProt P19971 (whole entry, looked up): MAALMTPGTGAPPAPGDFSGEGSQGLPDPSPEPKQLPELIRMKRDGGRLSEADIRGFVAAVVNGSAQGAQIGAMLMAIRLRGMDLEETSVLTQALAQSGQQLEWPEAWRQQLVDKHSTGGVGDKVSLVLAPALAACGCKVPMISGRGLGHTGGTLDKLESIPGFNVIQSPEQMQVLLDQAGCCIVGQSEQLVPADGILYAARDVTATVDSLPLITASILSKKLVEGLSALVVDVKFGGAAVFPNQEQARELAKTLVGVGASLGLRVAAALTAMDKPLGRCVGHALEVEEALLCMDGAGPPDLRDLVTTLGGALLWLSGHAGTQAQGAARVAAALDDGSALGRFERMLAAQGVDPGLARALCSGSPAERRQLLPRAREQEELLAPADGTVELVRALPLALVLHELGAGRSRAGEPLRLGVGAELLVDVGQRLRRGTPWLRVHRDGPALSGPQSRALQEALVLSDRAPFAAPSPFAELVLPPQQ
# Chain of UniProt P05177 (whole entry, looked up): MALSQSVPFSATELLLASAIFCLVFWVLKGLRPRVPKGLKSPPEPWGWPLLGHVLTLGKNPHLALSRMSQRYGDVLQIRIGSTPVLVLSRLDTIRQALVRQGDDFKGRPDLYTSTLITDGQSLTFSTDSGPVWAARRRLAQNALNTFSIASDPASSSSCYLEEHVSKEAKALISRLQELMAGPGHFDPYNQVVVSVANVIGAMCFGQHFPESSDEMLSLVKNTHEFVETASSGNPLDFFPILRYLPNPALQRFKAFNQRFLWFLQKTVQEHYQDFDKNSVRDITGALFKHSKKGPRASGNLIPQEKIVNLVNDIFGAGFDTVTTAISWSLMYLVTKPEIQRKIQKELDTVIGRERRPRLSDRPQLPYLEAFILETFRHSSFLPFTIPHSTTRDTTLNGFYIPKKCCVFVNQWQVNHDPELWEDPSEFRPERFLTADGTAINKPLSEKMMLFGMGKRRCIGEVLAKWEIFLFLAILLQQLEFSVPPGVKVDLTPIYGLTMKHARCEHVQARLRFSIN
# Chain of UniProt P00761 (whole entry, looked up): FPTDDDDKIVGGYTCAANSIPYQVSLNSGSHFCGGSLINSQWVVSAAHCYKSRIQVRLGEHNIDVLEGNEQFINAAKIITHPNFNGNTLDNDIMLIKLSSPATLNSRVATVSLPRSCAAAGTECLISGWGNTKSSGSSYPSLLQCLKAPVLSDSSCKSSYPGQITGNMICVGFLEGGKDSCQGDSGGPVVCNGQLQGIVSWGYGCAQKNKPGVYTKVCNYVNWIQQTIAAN
SMILES,target,test,test system,conditions,scale,quantity,result
CC(=O)N[C@@H](CC(C)C)C(=O)N[C@H](C=O)Cc1ccccc1,"Chymotrypsinogen A (Bos taurus, UniProt P00766)","13C NMR titration, item: hemiacetal oxyanion",,,,pKa,< 6
CC[C@H](C)[C@H](NC(=O)CN)C(=O)N[C@@H](CCCCN)C(=O)N[C@@H](CCCCN)C(=O)N[C@@H](Cc1ccccc1)C(=O)N[C@@H](CC(C)C)C(=O)N[C@@H](CCCCN)C(=O)N[C@]1(C)CCCCCCC=CCCC[C@@](C)(C(=O)N[C@@H](Cc2ccccc2)C(=O)N[C@@H](CCCCN)C(N)=O)NC(=O)[C@H](CCCCN)NC(=O)[C@H](C(C)C)NC(=O)[C@H](Cc2ccccc2)NC(=O)[C@H](CCCCN)NC(=O)[C@H](CCCCN)NC(=O)[C@H](C)NC1=O,"Trypsin (Sus scrofa, UniProt P00761)",UPLC,NH4HCO3 buffer 50 mM,"concentration not given, 24 h, pH 7.8, 37 °C, with: Trypsin 0.2 U/mL",,remaining compound,70 to 80%
O=c1[nH]c(=O)n([C@H]2C[C@H](O)[C@@H](CO)O2)cc1F,"Thymidine phosphorylase (Homo sapiens, UniProt P19971)",substrate,,"200 µM, pH 7.0, 37 °C, with: enzyme 2.0 ng/µL",,half-life,6 ± 3 min
CC/C=C\C/C=C\C/C=C\C/C=C\C/C=C\C/C=C\CCC(=O)O,UGT1A1 (human),item: bilirubin,hUGT1 mouse,"10 mg/kg, 0.5 mg/mL",baseline: with over without inhibitor,intrinsic clearance ratio,0.0034
Cn1c(=O)c2c(ncn2C)n(C)c1=O,"Cytochrome P450 1A2 (CYP1A2, Homo sapiens, UniProt P05177)",,"human, plasma","oral, 200 mg, geometric LS mean, with: EDP-305 10 mg",,AUC(0-inf),61700 ng·h/mL
Cc1ccc(Nc2nccc(N(C)c3ccc4c(C)n(C)nc4c3)n2)cc1S(N)(=O)=O,Broad substrate specificity ATP-binding cassette transporter ABCG2,bidirectional transport,MDCK-Bcrp1 (murine Bcrp1),"5 µM, 240 min, with: erlotinib",,Papp A-B,2.95 ± 0.13 ×10⁻⁶ cm/s
CC(C)N(CCC(C(N)=O)(c1ccccc1)c1ccccn1)C(C)C (stereo not shown),alpha-1-acid glycoprotein (human),isothermal titration calorimetry,,"pH 7.4, 30 °C, heterogeneous AGP preparation",,Kd,29.6 µM
CC[C@H](C)[C@H](NC(=O)[C@H](CCC(=O)O)NC(=O)[C@H](CO)NC(=O)[C@@H](NC(=O)[C@@H](N)CO)C(C)C)C(=O)N[C@@H](CCC(N)=O)C(=O)N[C@@H](CC(C)C)C(=O)N[C@@H](CCSC)C(=O)N[C@@H](Cc1cnc[nH]1)C(=O)N[C@@H](CC(N)=O)C(=O)N[C@@H](CC(C)C)C(=O)NCC(=O)N[C@@H](CCCCN)C(=O)N[C@@H](Cc1cnc[nH]1)C(=O)N[C@@H](CC(C)C)C(=O)N[C@@H](CC(N)=O)C(=O)N[C@@H](CO)C(=O)N[C@@H](CCSC)C(=O)N[C@@H](CCC(=O)O)C(=O)N[C@@H](CCCN=C(N)N)C(=O)N[C@H](C(=O)N[C@@H](CCC(=O)O)C(=O)N[C@@H](Cc1c[nH]c2ccccc12)C(=O)N[C@@H](CC(C)C)C(=O)N[C@@H](CCCN=C(N)N)C(=O)N[C@@H](CCCCN)C(=O)N[C@@H](CCCCN)C(=O)N[C@@H](CC(C)C)C(=O)N[C@@H](CCC(N)=O)C(=O)N[C@@H](CC(=O)O)C(=O)N[C@H](C(=O)N[C@@H](Cc1cnc[nH]1)C(=O)N[C@@H](CC(N)=O)C(=O)N[C@@H](Cc1ccccc1)C(=O)O)C(C)C)C(C)C,"Chymotrypsinogen A, activated (chymotrypsin) (Bos taurus, UniProt P00766)","substrate, HPLC-UV",,"10 min, pH 6.5, 37 °C, without trypsin inhibitor",,remaining intact compound,0%
Cc1coc2c1CC[C@@H](C)C2,"Cytochrome P450 2A6 (CYP2A6, Homo sapiens, UniProt P11509)",inactivator,,"5 µM, 10 min, pH 7.4, 30 °C, with: NADPH",baseline: without NADPH,remaining activity,46 ± 14%
O=C(O)c1cc(/N=N/c2ccc(S(=O)(=O)Nc3ccccn3)cc2)ccc1O,Broad substrate specificity ATP-binding cassette transporter ABCG2,,"FVB mouse, plasma","oral, 20 mg/kg",,AUC,2170 ng·h/mL

# For quick reference, copied from above:
SMILES,target,test,test system,conditions,scale,quantity,result
CC(C)N(CCC(C(N)=O)(c1ccccc1)c1ccccn1)C(C)C (stereo not shown),alpha-1-acid glycoprotein (human),isothermal titration calorimetry,,"pH 7.4, 30 °C, heterogeneous AGP preparation",,Kd,29.6 µM
